Measured values pooled from the literature.
A part holds a random share of what one study measured.

Set 1
Cell line: HEK-293T
Observed: pseudovirus infection
Method: FDA-approved drug library screen
Organism: VSV pseudotyped with SARS-CoV-2 spike
Concentration: 10 µM
Time: 16 h
Baseline: vehicle-treated
SMILES	GFP-positive cells [%]
OCc1ccccc1	89.6
CN(C)CCC=C1c2ccccc2CCc2ccccc21	35.4
CC1(C)S[C@@H]2[C@H](NC(=O)[C@H](C(=O)O)c3ccsc3)C(=O)N2[C@H]1C(=O)O	82.6
C=C1CC[C@H](O)C/C1=C/C=C1\CCC[C@]2(C)[C@@H]([C@H](C)/C=C/[C@H](C)C(C)C)CC[C@@H]12	79.6

Set 2
Target: Replicase polyprotein 1ab, nsp13 helicase (rep, Severe acute respiratory syndrome coronavirus 2, UniProt P0DTD1)
Mode: inhibitor
Concentration: 20 µM
SMILES	inhibition
Cc1csc2c(N[C@@H](C)CN3CCN(S(=O)(=O)c4ccc(Cl)c(Cl)c4)CC3)ncnc12	52.6%
CC(C)Oc1ccc2c(=O)c(-c3ccccc3)coc2c1	6.12%
COc1cc2c(cc1OC)C(c1ccc(N)cc1)=NNC(=O)C2	6.79%
COc1ccc2c(c1)/C(=C/c1cnc[nH]1)C(=O)N2	12.7%
N=C(N)NCCC[C@H](N)C(=O)O	5.79%
CC1CC(OC(=O)C(O)c2ccccc2)CC(C)(C)C1 (stereo not shown)	2.87%
CCc1cccc(CC)c1NC(=O)c1nn(C)c2c1CCc1cnc(Nc3ccc(C(=O)NC4CCN(C)CC4)cc3OC(F)(F)F)nc1-2	0.31%
CC(C)NCC(O)COc1ccccc1-n1cccc1 (stereo not shown)	8.14%
Cc1cc(-c2ccc3c(c2)CC[C@H]3N2CC3(CCN(C(=O)Cc4cn5cc(C)sc5n4)CC3)C2)ncn1	5.1%
Cc1ccc(-c2nn(C(C)(C)CNC(=O)c3ncccc3C)c3ncnc(N)c23)cc1	8.57%
Nc1ncnc2c1ncn2[C@@H]1O[C@H](C(=O)N2CCN(CC(=O)Nc3cccc4c3CNC4=O)CC2)[C@@H](O)[C@H]1O	2.1%
CCN(CC)CCCCNc1ncc2cc(-c3cc(OC)cc(OC)c3)c(NC(=O)NC(C)(C)C)nc2n1	4.9%
CC(C)[C@](O)(c1ccc2cc(OC(F)F)c(OC(F)F)cc2c1)c1c[nH]nn1	-0.44%
Oc1cccc(Nc2ncc(F)c(Nc3cccc(O)c3)n2)c1	-0.01%
O=C(c1cc(S(=O)(=O)Nc2ccccc2F)c(F)cc1Cl)N1CCN2CCC[C@@H]2C1	-0.06%
CC(C)(C)[C@H]1CC[C@H](CC2=C(O)C(=O)c3ccccc3C2=O)CC1	-2.97%
COc1ccc2cc(C(C)C(=O)Oc3ccc(C(N)=S)cc3)ccc2c1 (stereo not shown)	10.6%
C#Cc1cccc(Nc2ncnc3cc(OC)c(OCCCCCCC(=O)NO)cc23)c1	5.44%
OC[C@H]1O[C@@H](n2cnc3c2N=CNC[C@H]3O)C[C@@H]1O	-1.06%
Cc1ccc2nc(NCCN)c3ncc(C)n3c2c1	16.1%
CN/C(=N\CCSCc1nc[nH]c1C)NC#N	-4.66%
CC(C)(Cc1c[nH]c2ccc(Cl)cc12)NCCOc1ccccc1OCC1CC1	0.36%
Cc1ccccc1C(=O)Nc1ccc(C(=O)N2CCCC(O)c3cc(Cl)ccc32)c(C)c1 (stereo not shown)	7.11%
COc1cc(O)c(C(=O)c2ccccc2)cc1S(=O)(=O)O	-2.95%
c1ccc(-c2ccc(C(c3ccccc3)n3ccnc3)cc2)cc1 (stereo not shown)	0.33%

Set 3
Target: Sal-like protein 4, full length isoform A (SALL4, Homo sapiens, UniProt Q9UJQ4, residues 1-1053)
Sequence of UniProt Q9UJQ4 (whole entry, looked up): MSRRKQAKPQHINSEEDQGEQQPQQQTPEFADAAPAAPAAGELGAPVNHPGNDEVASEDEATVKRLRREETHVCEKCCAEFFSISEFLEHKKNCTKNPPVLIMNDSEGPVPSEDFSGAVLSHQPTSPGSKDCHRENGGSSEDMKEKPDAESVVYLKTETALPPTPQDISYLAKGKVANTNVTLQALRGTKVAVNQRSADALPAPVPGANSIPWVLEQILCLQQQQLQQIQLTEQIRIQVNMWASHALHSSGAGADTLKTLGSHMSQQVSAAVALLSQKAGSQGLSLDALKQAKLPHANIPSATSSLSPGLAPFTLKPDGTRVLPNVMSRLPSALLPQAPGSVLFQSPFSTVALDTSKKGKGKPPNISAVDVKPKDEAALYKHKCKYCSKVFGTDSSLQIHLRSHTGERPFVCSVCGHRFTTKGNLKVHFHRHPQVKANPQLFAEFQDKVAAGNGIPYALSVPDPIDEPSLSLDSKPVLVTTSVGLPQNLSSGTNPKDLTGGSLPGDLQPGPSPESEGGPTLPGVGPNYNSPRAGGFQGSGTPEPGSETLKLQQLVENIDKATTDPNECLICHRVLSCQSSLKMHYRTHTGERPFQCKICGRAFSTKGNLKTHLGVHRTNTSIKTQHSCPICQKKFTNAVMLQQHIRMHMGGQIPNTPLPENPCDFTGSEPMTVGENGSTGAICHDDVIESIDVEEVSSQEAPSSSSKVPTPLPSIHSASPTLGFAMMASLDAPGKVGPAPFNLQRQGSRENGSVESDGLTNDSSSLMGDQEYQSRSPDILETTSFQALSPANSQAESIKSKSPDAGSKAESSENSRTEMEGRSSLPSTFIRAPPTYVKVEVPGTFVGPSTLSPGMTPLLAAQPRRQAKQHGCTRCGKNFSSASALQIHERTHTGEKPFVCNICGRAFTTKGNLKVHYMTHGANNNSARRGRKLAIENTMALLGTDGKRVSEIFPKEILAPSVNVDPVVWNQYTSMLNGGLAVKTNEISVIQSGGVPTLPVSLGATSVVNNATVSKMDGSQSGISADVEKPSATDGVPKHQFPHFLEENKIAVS
Method: universal PBM
Form: double-stranded DNA, one strand shown
Matrix: in vitro
Concentration: 600 nM
Setting: 8-mer, flanks averaged, mean of replicates
Reading: higher = stronger binding
Strand	E-score
ACGGATCA	-0.0543
CCAAAGCG	-0.233
ACGTAGCC	-0.217
CAGCGGAA	-0.161
CGGACGTC	-0.248
GAAATTCA	0.183
ATGGTCTC	-0.0143
ATCTTCTA	0.0599

Set 4
Target: Replicase polyprotein 1ab, main protease (rep, Severe acute respiratory syndrome coronavirus 2, UniProt P0DTD1)
Observed: enzyme activity
Mode: inhibitor
Concentration: 20 µM
Setting: hit confirmation
Structure (SMILES)	inhibition [%]
CCCCOc1ccc(CC/C=C2\SC(=O)N(CCN)C2=O)cc1	3.8
FC(F)(F)c1cc(NC(=S)Nc2ccc(Br)cc2-c2nnn[nH]2)cc(C(F)(F)F)c1	55.4
C=C(NNC(=S)NNC(=S)Nc1ccccc1Cl)c1ccccn1	-1.3
Sc1nnc(Nc2ccccc2)s1	110

Set 5
Target: RNA binding protein fox-1 homolog 2, RRM domain, GST-SBP tag (RBFOX2, Homo sapiens, UniProt O43251-10, residues 100-194)
Method: RNA Bind-n-Seq
Form: RNA
Matrix: in vitro
Concentration: 365 nM
Setting: natural RNA segment, single round, ends assumed
Baseline: no-protein control
Reading: higher = stronger binding
Shared flanks, not repeated: GGGAGUUCUACAGUCCGACGAUC … UGGAAUUCUCGGGUGCCAA
Residues (chain): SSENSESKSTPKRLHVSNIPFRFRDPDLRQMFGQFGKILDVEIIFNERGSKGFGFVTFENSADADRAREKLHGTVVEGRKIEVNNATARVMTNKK
Strand	RBNS enrichment (R)
UGAGGAACUAUGUAAGUUCAGUGUCCAAGCAUUUGACUGACAUUUGUGCAGAGUUAGGUUCCAUCUCCAGCAUCACGCACGGGUCUUGUGAACACCGACAUCUUCAGUUU	1.52
AGCCCUCUGAUCAGAGUGGAUGAGACCCUACAGAGGGCUGGCAGGAUUUACUAAUCUAGUGGAAUAUGCAUGGAUCAGACUGUGGCAUACAAGUCGUGCAGAGCAUGAAG	7.73
UGCAGUGGCUUCCCAUUUGCUCUGGGAACAGUGCCUCUGUGCUGGUUAUAUGUAUGCACCACAUGUGCACACACGGGUGUUGGUGCAACUCACCAGCAGGUGUGCAGUAG	0.514
GUUGCUUCCCGUUCAGCGUCACAUCUGCAGUGGAGCCUGAAAAGGCUCCACAUUAGGUCACCUGUGCACAGCCAUGGCUGGAAUGAUGAAGGGGAUACGCUGGAGUUGCC	0.293
UCCUCACCUUGAUCAGGACUAAAGGACGGAGGCCACUCCACCCCUUCCCCUUCUUCCAAAUCCCUAACUUCCUCCAGGCAAAACCCUCUGCCCUGCAGGAUUGAAGAUGG	0.335
GGGUGGGAAAGGGUCAUUACAUGAAAAUAUGAAGAAAUAGCCAUAUUAGUUUUUUAACCUGCAAUUUGCCUCAGCAACAAAGAAAAAGUGAAUUUUUAAUGCUGAAGAUA	0.754
GUAUCUCAAGAUAUUCAGGUGGCCAGAAGAGCUUGUCAGCAAGAGGAGGACAGAAUUCUCCCAGCGUUAACACAAAAUCCAUGGGCAGUAUGAUGGCAGGUCCUCUGUUG	0.488
AAAACAUGUAAAAUAUUGAAGUGUCUAACAAAUGGCAUAAAGUGUCUUUAAUAAAGGUUCAUUUAUAAUACUAAGUGUGUGCGGCGGUCACUGCUCUUUUAUUCUGCUAU	0.347

Set 6
Target: Sox, HMG box (Pigoraptor chileana)
Method: Spec-seq
Form: double-stranded DNA, one strand shown
Matrix: in vitro
Concentration: not given
Setting: whole probe, mean of replicates
Baseline: not given
Reading: lower = stronger binding
Target sequence (chain): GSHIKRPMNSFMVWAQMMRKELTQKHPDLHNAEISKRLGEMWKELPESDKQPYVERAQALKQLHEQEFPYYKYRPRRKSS
Strand	relative binding energy [ln ratio]
GAGTCGTCTCGTCAGCACCATTCAGCCGTAGAGCACTCAGGTC	-0.124
GAGTCGTCTCGTCAGCACCATTCCGCCGTAGAGCACTCAGGTC	0.798
GAGTCGTCTCGTCAGCACCATCGGGCCGTAGAGCACTCAGGTC	0.437

A few entries again (set 3):
Strand	E-score
CCAAAGCG	-0.233
CAGCGGAA	-0.161
ATGGTCTC	-0.0143
ATCTTCTA	0.0599
ACGGATCA	-0.0543
ACGTAGCC	-0.217
GAAATTCA	0.183
